Results gathered from unrelated publications.
Every numbered part comes from another study and shows a few of its results, in no order. “And” joins repeats or separate records; there may be more than shown.

Sample 1
Target: Tyrosine-protein kinase Fes/Fps (FES, Homo sapiens, UniProt P07332)
Chain of UniProt P07332 (whole entry, looked up): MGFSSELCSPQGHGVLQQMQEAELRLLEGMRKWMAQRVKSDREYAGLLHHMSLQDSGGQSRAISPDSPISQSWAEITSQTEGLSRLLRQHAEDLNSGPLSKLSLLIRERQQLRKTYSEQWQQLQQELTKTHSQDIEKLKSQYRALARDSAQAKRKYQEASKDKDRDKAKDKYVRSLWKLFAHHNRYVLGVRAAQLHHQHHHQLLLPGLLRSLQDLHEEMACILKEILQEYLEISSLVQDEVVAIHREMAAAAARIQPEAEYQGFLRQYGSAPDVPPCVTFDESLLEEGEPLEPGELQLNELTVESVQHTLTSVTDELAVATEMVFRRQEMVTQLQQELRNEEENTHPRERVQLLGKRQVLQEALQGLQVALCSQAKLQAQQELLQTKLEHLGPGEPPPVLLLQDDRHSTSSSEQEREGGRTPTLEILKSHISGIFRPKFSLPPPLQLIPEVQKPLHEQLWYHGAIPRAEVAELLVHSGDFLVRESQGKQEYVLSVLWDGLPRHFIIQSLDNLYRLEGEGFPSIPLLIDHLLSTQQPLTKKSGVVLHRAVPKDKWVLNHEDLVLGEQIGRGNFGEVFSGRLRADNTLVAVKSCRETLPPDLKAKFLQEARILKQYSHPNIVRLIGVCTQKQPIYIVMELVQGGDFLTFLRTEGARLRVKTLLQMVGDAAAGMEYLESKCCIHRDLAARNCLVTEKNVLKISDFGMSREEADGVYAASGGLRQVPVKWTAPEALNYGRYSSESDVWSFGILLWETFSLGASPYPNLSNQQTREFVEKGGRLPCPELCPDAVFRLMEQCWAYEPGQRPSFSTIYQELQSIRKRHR
Effect on: enzyme activity
Mode: inhibitor
Concentration: 0.5 µM
Reference: control
Quantity: remaining activity
NC(=O)c1ccc(-c2nc(-c3ccc4c(c3)OCCO4)c(-c3ccccn3)[nH]2)cc1: 98.4%
N#CC(c1ccnc(NCCc2cccnc2)n1)c1nc2ccccc2s1 (centres unmarked): 92.8%
COc1cc2c(Nc3ccc(Br)cc3F)ncnc2cc1OCC1CCN(C)CC1: 104%
Nc1nc(Nc2ccc(S(N)(=O)=O)cc2)nn1C(=S)Nc1c(F)cccc1F: 10.2%
CCCCc1c(-c2ccc(O)cc2)[nH]c2nccnc12: 64.5%
COc1cc2c(N3CCN(C(=O)Nc4ccc(OC(C)C)cc4)CC3)ncnc2cc1OCCCN1CCCCC1: 105%
Clc1ccc(Nc2nnc(Cc3ccncc3)c3ccccc23)cc1: 94.7%
O=C(c1ccccc1)c1ccc(N2CCOCC2)cc1O: 95.2%
FC(F)(F)c1ccc(/C=C/c2nc(COc3ccc(CCCCn4ccnn4)cc3)co2)cc1: 102%
O=Nc1c(-c2c(O)[nH]c3ccccc23)[nH]c2ccccc12: 92.4%
O=c1c(-c2ccc(F)cc2)c(-c2ccncc2)[nH]n1-c1ccc(Cl)cc1: 92.3%
O=C1NC(=O)/C(=C/c2ccc3c(c2)OC(F)(F)O3)S1: 98.3%
O=C(O)/C=C/c1cc(Br)c(Br)c(Br)c1Br: 88.8%
CCN(CC)CCCCN1c2ccccc2Oc2ccc(Cl)cc21: 99.8%
C[C@@H](N)[C@H]1CC[C@H](C(=O)Nc2ccncc2)CC1: 109%
N#C/C(=C(/N)SC1C=CC=CC1)c1cccc(C(O)c2ccncc2)c1 (centres unmarked): 95.2%
CC(C)(C)c1nc2c3cc[nH]c(=O)c3c3cc(F)ccc3c2[nH]1: 78%
CC(C)N(CCC(=O)c1ccc2ccccc2c1)Cc1ccccc1: 92.7%
NC(=O)c1cccc(-c2cc(Nc3ccc(OC(F)(F)F)cc3)ncn2)c1: 96.3%
O=C1c2ccccc2-c2nc3nnnn3nc21: 87.5%
c1cc(-c2cnn3cc(-c4ccc(OCCN5CCCCC5)cc4)cnc23)ccn1: 76.8%
CNc1cc2c(Nc3cccc(Br)c3)ncnc2cn1: 96.9%
CC(C)n1cnc2c(Nc3cccc(Cl)c3)nc(NCCO)nc21: 66.2%

Sample 2
Cell line: A-375
Concentration: 100 µM
Time: 36 h
Quantity: viability
C=CCc1cc(OC)c(O)c(C(=O)NCCO)c1: 105%
N=C(N)c1ccc(/N=N/Nc2ccc(C(=N)N)cc2)cc1: 3.99%
Cc1cc(=O)n(-c2ccccc2)n1C: 115%
C[n+]1ccccc1/C=N/O: 110%
CCN1CCN(C(=O)N[C@@H](C(=O)N[C@@H]2C(=O)N3C(C(=O)O)=C(CSc4nnnn4C)CS[C@H]23)c2ccc(O)cc2)C(=O)C1=O: 113%
O=C(OC1C[C@@H]2CC3C[C@H](C1)N2CC3=O)c1c[nH]c2ccccc12 (some centres unmarked): 96.5%
CCN(CC)CCNC(C(=O)OCCC(C)C)c1ccccc1 (centres unmarked): 87%
[H]/N=C(/N)N/C(=N/[H])NCCc1ccccc1: 63.8%
Clc1ccc(C(Cn2ccnc2)OCc2ccsc2Cl)c(Cl)c1 (centres unmarked): -2.97%
CC1=CC(=O)c2ccccc2C1=O: -0.112%
CCN(CC)CCc1nc(-c2ccccc2)no1: 24.8%
CN(C)CCCN1c2ccccc2Sc2ccc(Cl)cc21: -0.0689%
CC1(C)O[C@@H]2C[C@H]3[C@@H]4C[C@H](F)C5=CC(=O)C=C[C@]5(C)[C@@]4(F)[C@@H](O)C[C@]3(C)[C@]2(C(=O)CO)O1: 101%
C1N2CN3CN1CN(C2)C3: 116%
C[C@H]1[C@@H](O)O[C@@H]2O[C@@]3(C)CC[C@H]4[C@H](C)CC[C@@H]1[C@@]24OO3: 13.5%

Sample 3
Organism: Sarcocystis neurona
Effect on: parasite growth
Concentration: 10 µM
Time: 96 h
Reference: untreated
Quantity: log2 fold change
CC(C)(C)NCC(O)c1cc(O)cc(O)c1 (centres unmarked): 0.51
COc1ccc2cc(CCC(C)=O)ccc2c1: 2.2
Nc1ccc(S(=O)(=O)c2ccc(N)cc2)cc1: 0.29
COc1ccc([C@@H]2Sc3ccccc3N(CCN(C)C)C(=O)[C@@H]2OC(C)=O)cc1: -0.0333
CCCCCCCCCCC[C@@H](C[C@@H]1OC(=O)[C@H]1CCCCCC)OC(=O)[C@H](CC(C)C)NC=O: -0.42
COc1cccc2c1C(=O)c1c(O)c3c(c(O)c1C2=O)C[C@@](O)(C(=O)CO)C[C@@H]3O[C@H]1C[C@H](N)[C@@H](O)[C@H](C)O1: -2.5
COC(=O)C[C@](O)(CCCC(C)(C)O)C(=O)O[C@@H]1C(OC)=C[C@]23CCCN2CCc2cc4c(cc2[C@H]13)OCO4: -7.88
CC(C)NCC(O)c1cc(O)cc(O)c1 (centres unmarked): 0.3
OC(c1cc(C(F)(F)F)nc2c(C(F)(F)F)cccc12)C1CCCCN1 (centres unmarked): -0.23
c1ccc(-c2ccc(C(c3ccccc3)n3ccnc3)cc2)cc1 (centres unmarked): -1.15
COC(=O)C1=C(C)NC(C)=C(C(=O)OC(C)C)C1c1cccc2nonc12 (centres unmarked): 0.48
CCC(C)n1ncn(-c2ccc(N3CCN(c4ccc(OCC5COC(Cn6cncn6)(c6ccc(Cl)cc6Cl)O5)cc4)CC3)cc2)c1=O (centres unmarked): 0.42
COc1cc(/C=C/c2ccc(O)cc2)cc(OC)c1: 0.82
CC(C)(C)NCC(O)COc1cccc2c1CC(O)C(O)C2 (centres unmarked): 0.33
CC1=C(/C=C/C(C)=C/C=C/C(C)=C\C(=O)O)C(C)(C)CCC1: 0.38
C=CC[C@@H]1/C=C(\C)C[C@H](C)C[C@H](OC)[C@H]2O[C@@](O)(C(=O)C(=O)N3CCCC[C@H]3C(=O)O[C@H](/C(C)=C/[C@@H]3CC[C@@H](O)[C@H](OC)C3)[C@H](C)[C@@H](O)CC1=O)[C@H](C)C[C@@H]2OC: -0.46
Clc1ccccc1C(c1ccccc1)(c1ccccc1)n1ccnc1: -1.12
CCOc1cc(N)c(Cl)cc1C(=O)NCC1CN(Cc2ccc(F)cc2)CCO1 (centres unmarked): -0.98

Sample 4
Compound: COc1ccc2c(c1)O[C@@H](c1ccc(OC)c(OC)c1)C[C@H]2NC(=O)C1(c2ccc3c(c2)OC(F)(F)O3)CC1 (single isomer, unassigned)
Concentration: 1 µM
Reference: DMSO
Quantity: viability
normal adjacent epithelium organoid sample E; CellTiter-Glo: 77.1%
normal-adjacent epithelium patient-derived organoids sample F; CellTiter-Glo: 102% and 78.3%
normal adjacent epithelium organoid sample D; CellTiter-Glo: 70.9%
normal-adjacent epithelium patient-derived organoids sample E; CellTiter-Glo: 72.1% and 82.1%
sample J colorectal tumour organoid: 95.5%
sample I colorectal tumour organoid: 85.7% and 90.6%
sample B colorectal tumour organoid: 99.1% and 92.2%
normal adjacent epithelium organoid sample F; CellTiter-Glo: 90.2%
colorectal tumour organoids: 92.9%
normal adjacent epithelium organoid sample G; CellTiter-Glo: 108%
normal-adjacent epithelium patient-derived organoids sample H; CellTiter-Glo: 101% and 125%
normal-adjacent epithelium patient-derived organoids sample G; CellTiter-Glo: 108% and 109%
